Measured values pooled from the literature.
Compare with care: the assays were run in different laboratories. Numbers after ± are the reported error.
Sequence of UniProt O60656 (whole entry, looked up): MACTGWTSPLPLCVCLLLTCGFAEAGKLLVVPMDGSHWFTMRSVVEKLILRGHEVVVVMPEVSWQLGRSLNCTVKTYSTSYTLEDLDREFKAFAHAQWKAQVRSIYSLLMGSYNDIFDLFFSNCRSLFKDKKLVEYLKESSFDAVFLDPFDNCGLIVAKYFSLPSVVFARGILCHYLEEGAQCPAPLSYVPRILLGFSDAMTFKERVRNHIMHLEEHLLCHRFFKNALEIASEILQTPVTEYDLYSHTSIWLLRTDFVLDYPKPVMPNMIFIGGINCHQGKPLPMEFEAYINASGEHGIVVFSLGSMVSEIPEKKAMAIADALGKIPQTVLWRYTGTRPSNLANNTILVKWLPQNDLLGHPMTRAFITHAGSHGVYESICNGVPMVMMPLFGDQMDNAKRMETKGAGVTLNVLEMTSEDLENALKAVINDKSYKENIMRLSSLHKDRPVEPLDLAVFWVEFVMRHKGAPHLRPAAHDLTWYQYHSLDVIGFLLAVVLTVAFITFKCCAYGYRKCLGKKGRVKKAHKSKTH

Substance	target or system	test	test system	setting	how to read	measurement	value
CCCOc1ccc([C@H]2CNC(=O)N2c2ccc3[nH]cnc3c2)cc1			human volunteers fasted, plasma	oral solution, 400 mg single dose, day 1, geometric mean		effective half-life	2.43 h
C/C=C1\NC(=O)[C@H]2CSSCC/C=C/[C@H](CC(=O)N[C@H](C(C)C)C(=O)N2)OC(=O)[C@H](C(C)C)NC1=O			advanced cancer patients, plasma	intravenous, 14 mg/m^2, geometric mean, added: rifampin 600 mg		volume of distribution (Vz)	77.6 L
CC(=O)N[C@H](C(=O)N[C@@H](CCCNC(=N)N)C(=O)N[C@H](C(=O)N[C@@H](CC(=O)O)C(=O)N[C@H](C(=O)N[C@@H](CCCNC(=N)N)C(=O)N[C@H](C(=O)N[C@@H](CC(=O)O)C(=O)N[C@H](C(N)=O)C(C)C)C(C)C)C(C)C)C(C)C)C(C)C		rotational rheometry	2% w/v aqueous solution	shear rate range 1-1000 s^-1		viscosity	2050 ± 204 Pa·s
FNA / CGLSGLGVA-NH2 ([18F]FNA-labelled, C-amide)		PET imaging	peptide, mouse, intracranial BT-12 glioblastoma xenograft	iv, dose not given		tumour SUV	0.21 ± 0.03
C=C(C)[C@@H]1CC[C@]2(NCCN3CCS(=O)(=O)CC3)CC[C@]3(C)[C@H](CC[C@@H]4[C@@]5(C)CC=C(C6=CC[C@@](CF)(C(=O)O)CC6)C(C)(C)[C@@H]5CC[C@]43C)[C@@H]12			healthy human	oral, 700 mg, single ascending dose, geometric mean		t1/2	20.8 h
CC(C)[C@](O)(c1ccc2cc(OC(F)F)c(OC(F)F)cc2c1)c1c[nH]nn1			human, male, plasma	oral, 750 mg, cycle 2 day 2, steady state		AUC(tau)	63500 ng·h/mL
Nc1ccn([C@@H]2O[C@H](CO)[C@@H](O)C2(F)F)c(=O)n1			human cancer patients, plasma	intravenous, 1000 mg/m^2, cycle 1 day 1, given alone		AUC(tau)	8800 ng·h/mL
COc1cccc(CN)c1O			mouse C57BL/6N male, brain	oral drinking water, 5 g/L/day, 1 week		brain concentration	126 µM
O=C1N=C(N2CCOCC2)CN1c1ccc(Cl)cc1			beagle dog, both sexes, plasma	oral, 30 mg/kg, tablets, fed, day 5		terminal half-life	1.94 h
CS/C(S)=N/CCCC[S+](C)[O-] (racemic)		RT-PCR, refers to: Cyp3a23/1	rat, mammary gland	oral gavage, 200 mg/kg, dosed for four days	relative to: vehicle	mRNA fold change	0.013
CCCC[C@@H]1NC(=O)[C@@H](NC(=O)[C@H](CCC(=O)O)NC(=O)CNC(=O)CN2CCN(CC(=O)O)CCN(CC(=O)O)CCN(CC(=O)O)CC2)CCCCNC(=O)C[C@@H](C(N)=O)NC(=O)[C@H](C(C)C)NC(=O)[C@@H]2CCCN2C(=O)[C@H](CCCNC(=N)N)NC(=O)CNC(=O)[C@H](Cc2c[nH]c3ccccc23)NC(=O)[C@H](CCCNC(=N)N)NC(=O)[C@@H](Cc2ccccc2)NC(=O)[C@H](Cc2c[nH]cn2)NC(=O)[C@H](CCC(=O)O)NC1=O [indium-111 labelled]			normal C57 mice, blood	intravenous, 0.037 MBq, 4 h		tissue uptake	0.02 ± 0.02 %ID/g
CN[C@H](CC(C)C)C(=O)N[C@H]1C(=O)N[C@@H](CC(N)=O)C(=O)N[C@H]2C(=O)N[C@H]3C(=O)N[C@H](C(=O)N[C@H](C(=O)O)c4cc(O)cc(O)c4-c4cc3ccc4O)[C@H](O)c3ccc(c(Cl)c3)Oc3cc2cc(c3O[C@@H]2O[C@H](CO)[C@@H](O)[C@H](O)[C@H]2O[C@H]2C[C@](C)(N)[C@H](O)[C@H](C)O2)Oc2ccc(cc2Cl)[C@H]1O		microdialysis	pig, Danish Landrace, cortical bone	intravenous, 1000 mg over 100 min, 450 min dosing interval, added: 1.0 µg/mL MIC	relative to: dosing interval	time above MIC	46%
UGT1A9 (Homo sapiens, UniProt O60656)	O=c1cc(-c2ccccc2)oc2cc(O)ccc12	steady-state kinetics		pH 7.4, 37 °C		Vmax/Km	1360 µL/min/mg
Nc1ccc(S(=O)(=O)Nc2ccnn2-c2ccccc2)cc1		rosiglitazone metabolism, inhibitor	human liver microsomes	2.5 µM, added: rosiglitazone 10 µM		inhibition	30%
Cc1cc(C)c(C#N)c(SCC(=O)c2ccc(F)cc2F)n1		metabolic stability	human, liver microsomes	0.5 µM, pH 7.4		microsomal CLint	690 µL/min/mg
CC[C@H](C)[C@H](NC(=O)[C@H](CCC(N)=O)NC(=O)[C@H](Cc1c[nH]cn1)NC(=O)[C@H](C)NC(=O)[C@H](CC(C)C)NC(=O)[C@H](CCCCN)NC(=O)[C@H](CCC(N)=O)NC(=O)[C@@H](NC(=O)[C@@H](NC(=O)[C@@H]1CSSC[C@H](NC(=O)CNC(=O)[C@H](Cc2ccccc2)NC(=O)[C@H](CO)NC(=O)[C@H](CCCNC(=N)N)NC(=O)[C@H](CC(C)C)NC(=O)CNC(=O)[C@H](CCC(N)=O)NC(=O)[C@H](Cc2ccccc2)NC(=O)[C@H](CC(N)=O)NC(=O)[C@H](CC(N)=O)NC(=O)[C@H](CCSC)NC(=O)[C@H](CO)NC(=O)[C@H](CCC(N)=O)NC(=O)[C@H](CCCNC(=N)N)NC(=O)[C@@H](N)Cc2ccc(O)cc2)C(=O)N[C@@H](CCCNC(=N)N)C(=O)N[C@@H](Cc2ccccc2)C(=O)NCC(=O)N[C@@H]([C@@H](C)O)C(=O)N1)[C@@H](C)O)C(C)C)C(=O)N[C@@H](Cc1ccc(O)cc1)C(=O)N[C@@H](CCC(N)=O)C(=O)N[C@@H](Cc1ccccc1)C(=O)N[C@H](C(=O)N[C@@H](CC(=O)O)C(=O)N[C@@H](CCCCN)C(=O)N[C@@H](CC(=O)O)C(=O)N[C@@H](CCCCN)C(=O)N[C@@H](CC(=O)O)C(=O)N[C@@H](CC(N)=O)C(=O)N[C@H](C(=O)N[C@@H](C)C(=O)N1CCC[C@H]1C(=O)N[C@@H](CCCNC(=N)N)C(=O)N[C@@H](CO)C(=O)N[C@@H](CCCCN)C(=O)N[C@H](C(=O)N[C@@H](CO)C(=O)N1CCC[C@H]1C(=O)N[C@@H](CCC(N)=O)C(=O)NCC(=O)N[C@@H](Cc1ccc(O)cc1)C(N)=O)[C@@H](C)CC)C(C)C)[C@@H](C)O			healthy male humans	dose not given, single dose, medium and high dose		duration of Wenckebach atrioventricular block	≤ 1 min
CC(C)(C)OC[C@@H]1C(=O)NCCN1C(=O)C[C@H](N)Cc1cc(F)c(F)cc1F			human	20 mg once daily, day 10		renal clearance at steady state	250 ± 23.3 mL/min
Cc1ncnc2c1c(Cl)cn2[C@@H]1O[C@H](CO)[C@@H](O)[C@H]1O			mouse liver microsomes	60 min, added: NADPH		remaining compound	87%
CC[C@H](C)[C@H](NC(=O)[C@H](Cc1ccccc1)NC(=O)[C@H](CC(=O)O)NC(=O)[C@H](CCCNC(=N)N)NC(=O)[C@H](C)NC(=O)[C@H](C)NC(=O)[C@H](CC(C)C)NC(=O)[C@H](CC(N)=O)NC(=O)[C@H](CC(=O)O)NC(=O)[C@H](CC(C)C)NC(=O)[C@@H](NC(=O)[C@@H](NC(=O)[C@H](CC(N)=O)NC(=O)[C@H](CCSC)NC(=O)[C@H](CCC(=O)O)NC(=O)[C@H](CC(=O)O)NC(=O)[C@H](CO)NC(=O)[C@H](Cc1ccccc1)NC(=O)[C@H](CO)NC(=O)CNC(=O)[C@H](CC(=O)O)NC(=O)CNC(=O)[C@@H](N)Cc1c[nH]cn1)[C@@H](C)O)[C@@H](C)CC)C(=O)N[C@@H](CC(N)=O)C(=O)N[C@@H](Cc1c[nH]c2ccccc12)C(=O)N[C@@H](CC(C)C)C(=O)N[C@H](C(=O)N[C@@H](CCC(N)=O)C(=O)N[C@H](C(=O)N[C@@H](CCCCN)C(=O)N[C@H](C(=O)N[C@H](C(=O)N[C@@H](CC(=O)O)C(=O)O)[C@@H](C)O)[C@@H](C)CC)[C@@H](C)O)[C@@H](C)CC			Japanese patients, moderate renal impairment	subcutaneous, 0.05 mg/kg	relative to: normal renal function	CL/F reduction	37%
O=C(O)C[C@H](O)C[C@H](O)/C=C/c1c(C2CC2)nc2ccccc2c1-c1ccc(F)cc1			healthy Chinese male volunteers, plasma	oral, 2 mg once daily, multiple dose		volume of distribution	165 L
CIKVAVS			peptide, human polyclonal IgM RF ABR	concentration not given, 5 µg/mL mAb II-481 coated, added: RF at 50% max binding concentration		inhibition	0%
acyl ghrelin (human)			mouse, wild type, thalamus	intravenous, 10 min		brain/serum ratio	6.17 µL/g
TWPKHFDKHTFYSILKLGKH-OH (C-acid)		in situ brain perfusion	peptide, male C57BL/6J mouse, right brain hemisphere	5 min, 1.15 mL/min perfusion, 1 min wash	relative to: input	brain uptake	0.22 ± 0.052%
C[C@]12CC[C@@H]3c4ccc(O)cc4CC[C@H]3[C@@H]1C[C@@H](O)[C@@H]2O		GC-MS	breast cancer women on NSAI, serum	vaginal, 0.03 mg, 3 h, day 0		mean serum concentration	0.0843 ng/mL
O=C(Cc1cccc(OC(F)(F)F)c1)Nc1ccc(CCCCc2nnc(NC(=O)Cc3ccccn3)s2)nn1			human patients, plasma	oral, 150 mg three times daily fasted, cycle 1 day 15 steady state		Cmin	355 ng/mL
O=C(O)COC[C@H]1CC[C@H](COC(=O)N(c2ccccc2)c2ccc(Cl)cc2)CC1			human, plasma	oral, 10 µg, 12 h, multiple doses, twice daily, steady state		concentration	0.436 ng/mL
CCOc1ccc(Cc2cc([C@]34OC[C@](CO)(O3)[C@@H](O)[C@H](O)[C@H]4O)ccc2Cl)cc1			human, type 2 diabetes, normal renal function, urine and plasma	oral, 15 mg single, 0 to 96 h, geometric mean		renal clearance	2.09 mL/min
CC(C)(Sc1ccncc1-c1ccc(C#N)c2ccccc12)C(=O)O			human, male, Japanese, plasma	oral, 15 mg, day 6, fed, single dose		t1/2	6.91 h
SGVPDRF			peptide, human polyclonal IgM RF ABR	concentration not given, 5 µg/mL mAb II-481 coated, added: RF at 50% max binding concentration		inhibition	62%
Cn1c(-c2ccc(C(N)=O)cc2F)nnc1C(C)(C)Oc1c(F)cc(Cl)cc1F			healthy young Japanese subjects, plasma	oral, 50 mg once daily, day 18, 14 days dosing		Tmax range	1 to 4 h

For quick reference, copied from above:
Substance	target or system	test	test system	setting	how to read	measurement	value
O=C(O)C[C@H](O)C[C@H](O)/C=C/c1c(C2CC2)nc2ccccc2c1-c1ccc(F)cc1			healthy Chinese male volunteers, plasma	oral, 2 mg once daily, multiple dose		volume of distribution	165 L
CIKVAVS			peptide, human polyclonal IgM RF ABR	concentration not given, 5 µg/mL mAb II-481 coated, added: RF at 50% max binding concentration		inhibition	0%
acyl ghrelin (human)			mouse, wild type, thalamus	intravenous, 10 min		brain/serum ratio	6.17 µL/g
